# Assay results gathered from unrelated publications.
# Each line is one published result; not all experiments were run side by side. Numbers after ± are the reported error.
Compound,test,test system,conditions,how to read,quantity,result
COc1ccc2c(c1)c(CC(=O)OCC(=O)OC(C)(C)C)c(C)n2C(=O)c1ccc(Cl)cc1,acetic acid writhing test,BALB/c mouse,"intraperitoneal, 30 mg/kg",baseline: negative control,analgesia,73.3%
C=C(c1ccc(C(=O)O)c(F)c1)c1cc2c(cc1C)C(C)(C)C=CC2(C)C,"RNA sequencing, measured: Angptl4 mRNA","rat, brain","dose not given, 24 h, single dose",baseline: vehicle,log2 fold change,-1.43
COc1ccc2c(c1OCc1ccccc1)C[C@@H](C(=O)O)N(c1nc3ccc(C#N)cc3o1)C2,von Frey,"rat, chronic constriction injury","oral, 30 and 60 mg/kg",,duration of action,~2 h
CCCCCCCOC(=O)Cc1c(C)n(C(=O)c2ccc(Cl)cc2)c2ccc(OC)cc12,hot plate test,BALB/c mice,"100 mg/kg, 90 min",,latency of nociceptive response,16.8 ± 1.2 s
CCCC[C@H](NC(=O)[C@@H](NC(=O)[C@H](CC(=O)O)NC(=O)[C@H](CCC(N)=O)NC(=O)[C@H](CC(C)C)NC(=O)[C@H](CC(C)C)NC(=O)[C@H](CCCN)NC(=O)[C@H](CCCNC(=N)N)NC(=O)[C@H](C)NC(=O)[C@H](CO)NC(=O)[C@H](CC(C)C)NC(=O)[C@H](CCC(N)=O)NC(=O)[C@H](CC)NC(=O)[C@H](CC(C)C)NC(=O)[C@@H](NC(=O)[C@H](CCCN)NC(=O)[C@H](CCCNC(=N)N)NC(=O)[C@H](Cc1ccc(O)cc1)NC(=O)[C@H](CO)NC(=O)[C@H](CCC(N)=O)NC(=O)[C@@H](NC(=O)[C@H](Cc1ccccc1)NC(=O)[C@@H](NC(=O)[C@H](C)NC(=O)[C@H](CC(=O)O)NC(=O)[C@@H](C)NC(=O)[C@H](Cc1ccc(O)cc1)NC)[C@@H](C)CC)[C@@H](C)O)C(C)C)[C@@H](C)CC)C(=O)N[C@@H](CC(=O)O)C(=O)N[C@@H](CCCNC(=N)N)C(=O)NCCCCC(N)=O,"GH release, ELISA","male Sprague-Dawley rat, anaesthetised, serum","subcutaneous, 3 µg/kg, 15 min",,serum GH level,309 ± 33.5 ng/mL
O=c1c(OCc2ccccc2)c(-c2ccc(Cl)cc2)oc2ccccc12,,diabetic rat,"5 mg/kg, p-nitrophenyl β-glucoside induced",,serum alanine aminotransferase,31.7 ± 2.11 IU
CC[C@H]1[C@@H](O)[C@@H]2[C@H](CC[C@]3(C)[C@@H]([C@H](C)CCOS(=O)(=O)[O-])CC[C@@H]23)[C@@]2(C)CC[C@@H](O)C[C@@H]12.[Na+],EchoMRI,ob/ob NASH mouse model,"oral, 10 mg/kg once daily, before treatment, baseline of 8 week study",,whole-body fat mass,19.5 ± 0.7 g
O=c1c(OCc2ccccc2)c(-c2cccc([N+](=O)[O-])c2)oc2ccccc12,,diabetic rat,"7.5 mg/kg, 28 days, p-nitrophenyl β-glucoside induced",,serum HDL cholesterol,45 ± 1.94 mg/dL
CCCC[C@H](NC(=O)[C@@H](NC(=O)[C@H](CC(=O)O)NC(=O)[C@H](CCC(N)=O)NC(=O)[C@H](CC(C)C)NC(=O)[C@H](CC(C)C)NC(=O)[C@H](CCCN)NC(=O)[C@H](CCCNC(=N)N)NC(=O)[C@H](C)NC(=O)[C@H](CO)NC(=O)[C@H](CC(C)C)NC(=O)[C@H](CCC(N)=O)NC(=O)[C@H](CC)NC(=O)[C@H](CC(C)C)NC(=O)[C@@H](NC(=O)[C@H](CCCN)NC(=O)[C@H](CCCNC(=N)N)NC(=O)[C@H](Cc1ccc(O)cc1)NC(=O)[C@H](CO)NC(=O)[C@H](CC(N)=O)NC(=O)[C@@H](NC(=O)[C@H](Cc1ccccc1)NC(=O)[C@@H](NC(=O)[C@H](C)NC(=O)[C@H](CC(=O)O)NC(=O)[C@@H](C)NC(=O)[C@H](Cc1ccc(O)cc1)NC)[C@@H](C)CC)[C@@H](C)O)C(C)C)[C@@H](C)CC)C(=O)N[C@@H](CC(=O)O)C(=O)NCCCCNC(=N)N,"GH release, ELISA","male Sprague-Dawley rat, anaesthetised, serum","subcutaneous, 3 µg/kg, 15 min",,serum GH level,244 ± 25.1 ng/mL
Cc1ncc([N+](=O)[O-])n1CCOCc1nnc(SCC(=O)c2ccc([N+](=O)[O-])cc2)o1,,,"100 µg/mL, 45 min",,DPPH scavenging,65.2 ± 0.15%
NS(=O)(=O)NCC(O)c1ccccc1F (stereo not shown),MES seizures,rat,oral,,ED50,50 mg/kg
CCCCSc1nnc(-c2ccc(N)cc2)o1,,,IC50,,DPPH radical scavenging,48.5%
O=C(CCN1CCC(O)CC1)Nc1nc(-c2ccccc2)cs1,,,"0.1 mM, 20 min",,DPPH radical scavenging,23.7%
COc1ccc(-c2oc3ccccc3c(=O)c2OCc2ccccc2)cc1,,diabetic rat,"7.5 mg/kg, 28 days, p-nitrophenyl β-glucoside induced",,serum total cholesterol,120 ± 4.89 mg/dL
CCCC[C@H](NC(=O)[C@@H](NC(=O)[C@H](CC(=O)O)NC(=O)[C@H](CCC(N)=O)NC(=O)[C@H](CC(C)C)NC(=O)[C@H](CC(C)C)NC(=O)[C@H](CCCN)NC(=O)[C@H](CCCNC(=N)N)NC(=O)[C@H](C)NC(=O)[C@H](CO)NC(=O)[C@H](CC(C)C)NC(=O)[C@H](CCC(N)=O)NC(=O)[C@H](CC)NC(=O)[C@H](CC(C)C)NC(=O)[C@@H](NC(=O)[C@H](CCCN)NC(=O)[C@H](CCCNC(=N)N)NC(=O)[C@H](Cc1ccc(O)cc1)NC(=O)[C@H](CO)NC(=O)[C@@H](NC(=O)[C@@H](NC(=O)[C@H](Cc1ccccc1)NC(=O)[C@@H](NC(=O)[C@H](C)NC(=O)[C@H](CC(=O)O)NC(=O)[C@@H](C)NC(=O)[C@H](Cc1ccc(O)cc1)NC)[C@@H](C)CC)[C@@H](C)O)[C@@H](C)O)C(C)C)[C@@H](C)CC)C(=O)N[C@@H](CC(=O)O)C(=O)N[C@@H](CCCNC(=N)N)C(=O)NC,"GH release, ELISA","male Sprague-Dawley rat, anaesthetised, serum","subcutaneous, 3 µg/kg, 15 min",,serum GH level,334 ± 54 ng/mL
CCOP(=O)(CC(=O)Nc1ccc(S(=O)(=O)N(CC(N)=O)c2ccc(N(CC(N)=O)S(=O)(=O)c3ccc(OC)cc3)c3ccccc23)cc1)OCC,Western blot,"APP/PS1 mice, hippocampus and frontal cortex",40 mg/kg,baseline: nuclear over cytoplasmic Nrf2,nuclear to cytoplasmic Nrf2,increased
COc1c2c(cc3oc(COC4OC(CO)C(O)C(O)C4O)cc(=O)c13)OC(C(C)(C)O)C2 (stereo not shown),,"mouse, xylene ear edema","oral, 4 mg/kg",,ear edema weight increase,4.32 ± 0.42 mg
COc1ccc(Nc2c(C#N)cnc3ccc(Cl)cc23)cc1,heme peroxidation,acetate buffer,"100 µM, 1 h, pH 5.2, with: H2O2",,maximal protection,91.8%
COc1cc(C(=O)OCCCN2CCCN(CCCOC(=O)c3cc(OC)c(OC)c(OCc4ccc([N+](=O)[O-])cc4)c3)CC2)cc(OC)c1OC,,"mouse, SNI neuropathic pain","peri-sciatic nerve, 10 nmol",,cold pain,decreased
CCCC[C@H](NC(=O)[C@@H](NC(=O)[C@H](CC(=O)O)NC(=O)[C@H](CCC(N)=O)NC(=O)[C@H](CC(C)C)NC(=O)[C@H](CC(C)C)NC(=O)[C@H](CCCN)NC(=O)[C@H](CCCNC(=N)N)NC(=O)[C@H](C)NC(=O)[C@H](CO)NC(=O)[C@H](CC(C)C)NC(=O)[C@H](CCC(N)=O)NC(=O)[C@H](CC)NC(=O)[C@H](CC(C)C)NC(=O)[C@@H](NC(=O)[C@H](CCCN)NC(=O)[C@H](CCCNC(=N)N)NC(=O)[C@H](Cc1ccc(O)cc1)NC(=O)[C@H](CO)NC(=O)[C@H](CCC(N)=O)NC(=O)[C@@H](NC(=O)[C@H](Cc1ccccc1)NC(=O)[C@@H](NC(=O)[C@H](C)NC(=O)[C@H](CC(=O)O)NC(=O)[C@@H](C)NC(=O)[C@H](Cc1ccc(O)cc1)NC)[C@@H](C)CC)[C@@H](C)O)C(C)C)[C@@H](C)CC)C(=O)N[C@@H](CC(=O)O)C(=O)N[C@@H](CCCNC(=N)N)C(=O)NC,"GH release, ELISA","male Sprague-Dawley rat, anaesthetised, serum","subcutaneous, 3 µg/kg, 15 min",,serum GH level,609 ± 35.3 ng/mL
CN(C)c1ccc(-c2oc3ccccc3c(=O)c2OCc2ccccc2)cc1,,diabetic rat,"5 mg/kg, 28 days, p-nitrophenyl β-glucoside induced",,serum LDL cholesterol,114 ± 3.4 mg/dL
C=C(c1cc(F)c(C(=O)O)c(F)c1)c1cc2c(cc1C)C(C)(C)CCC2(C)C,"RNA sequencing, measured: Ccl6 mRNA","rat, brain","dose not given, 24 h, single dose",baseline: vehicle,log2 fold change,0.66
CC12CC(O)C3CC1(OC1OC(CO)C(O)C(O)C1O)C3(COC(=O)c1ccccc1)C(=O)O2 (stereo not shown),,"pseudo-germ-free mice, reserpine model","14 mg/kg, 7 days",,out-of-circle rate,20%
CCCC[C@H](NC(=O)[C@@H](NC(=O)[C@H](CC(=O)O)NC(=O)[C@H](CCC(N)=O)NC(=O)[C@H](CC(C)C)NC(=O)[C@H](CC(C)C)NC(=O)[C@H](CCCN)NC(=O)[C@H](CCCNC(=N)N)NC(=O)[C@H](C)NC(=O)[C@H](CO)NC(=O)[C@H](CC(C)C)NC(=O)[C@H](CCC(N)=O)NC(=O)[C@H](CC)NC(=O)[C@H](CC(C)C)NC(=O)[C@@H](NC(=O)[C@H](CCCN)NC(=O)[C@H](CCCNC(=N)N)NC(=O)[C@H](Cc1ccc(O)cc1)NC(=O)[C@H](CO)NC(=O)[C@H](CC(N)=O)NC(=O)[C@@H](NC(=O)[C@H](Cc1ccccc1)NC(=O)[C@@H](NC(=O)[C@H](C)NC(=O)[C@H](CC(=O)O)NC(=O)[C@@H](C)NC(=O)[C@H](Cc1ccc(O)cc1)NC)[C@@H](C)CC)[C@@H](C)O)C(C)C)[C@@H](C)CC)C(=O)N[C@@H](CC(=O)O)C(=O)N[C@@H](CCCNC(=N)N)C(=O)NCC,"GH release, ELISA","male Sprague-Dawley rat, anaesthetised, serum","subcutaneous, 3 µg/kg, 15 min",,serum GH level,252 ± 33.3 ng/mL
CC[C@H](C)[C@H](NC(=O)[C@H](Cc1c[nH]cn1)NC(=O)[C@@H]1CSSC[C@H](NC(=O)[C@H](Cc2c[nH]cn2)NC(=O)[C@H](Cc2ccccc2)NC(=O)CCC(C(=O)O)N2CCN(CC(=O)O)CCN(CC(=O)O)CC2)C(=O)N2C[C@H](O)C[C@H]2C(=O)N[C@@H](Cc2ccc(O)c(Cl)c2)C(=O)N[C@@H](CC(=O)O)C(=O)N[C@@H](CC(C)C)C(=O)N1)C(=O)N[C@@H](CC(C)C)C(=O)NCc1ccc(CNC(=O)CCC(C(=O)O)N2CCN(CC(=O)O)CCN(CC(=O)O)CC2)cc1 (stereo partly shown) [gallium-68 labelled],PET/SPECT imaging,"rat, carotid crush thrombosis model",30 to 90 min post-injection,baseline: thrombus over contralateral carotid,thrombus to contralateral ratio,> 4 fold

# A few entries again:
Compound,test,test system,conditions,how to read,quantity,result
CN(C)c1ccc(-c2oc3ccccc3c(=O)c2OCc2ccccc2)cc1,,diabetic rat,"5 mg/kg, 28 days, p-nitrophenyl β-glucoside induced",,serum LDL cholesterol,114 ± 3.4 mg/dL
C=C(c1cc(F)c(C(=O)O)c(F)c1)c1cc2c(cc1C)C(C)(C)CCC2(C)C,"RNA sequencing, measured: Ccl6 mRNA","rat, brain","dose not given, 24 h, single dose",baseline: vehicle,log2 fold change,0.66
